Measured values pooled from the literature.
Values joined by “and” are separate records of one study, mostly repeats; a detail may differ. Numbers after ± are the reported error.
BCHE: Cholinesterase (BCHE, Homo sapiens, UniProt P06276)
Sequence of UniProt P06276 (whole entry, looked up): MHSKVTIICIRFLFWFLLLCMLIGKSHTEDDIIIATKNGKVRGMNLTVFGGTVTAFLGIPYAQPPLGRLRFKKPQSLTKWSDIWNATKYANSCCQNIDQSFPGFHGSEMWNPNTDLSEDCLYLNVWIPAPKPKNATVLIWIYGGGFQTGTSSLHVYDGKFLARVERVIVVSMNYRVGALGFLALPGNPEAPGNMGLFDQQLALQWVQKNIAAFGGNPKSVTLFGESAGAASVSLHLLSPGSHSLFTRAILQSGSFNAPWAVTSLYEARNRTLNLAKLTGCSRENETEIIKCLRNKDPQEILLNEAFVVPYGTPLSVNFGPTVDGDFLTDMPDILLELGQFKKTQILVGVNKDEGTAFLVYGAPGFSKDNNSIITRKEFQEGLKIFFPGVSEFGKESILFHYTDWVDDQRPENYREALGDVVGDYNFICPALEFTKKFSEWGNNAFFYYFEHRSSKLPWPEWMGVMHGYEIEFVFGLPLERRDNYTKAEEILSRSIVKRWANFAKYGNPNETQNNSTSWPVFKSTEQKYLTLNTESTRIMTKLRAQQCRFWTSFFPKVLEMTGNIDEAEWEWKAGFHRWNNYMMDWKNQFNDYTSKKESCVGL
MAL12: Alpha-glucosidase MAL12 (MAL12, Saccharomyces cerevisiae S288c, UniProt P53341)
Sequence of UniProt P53341 (whole entry, looked up): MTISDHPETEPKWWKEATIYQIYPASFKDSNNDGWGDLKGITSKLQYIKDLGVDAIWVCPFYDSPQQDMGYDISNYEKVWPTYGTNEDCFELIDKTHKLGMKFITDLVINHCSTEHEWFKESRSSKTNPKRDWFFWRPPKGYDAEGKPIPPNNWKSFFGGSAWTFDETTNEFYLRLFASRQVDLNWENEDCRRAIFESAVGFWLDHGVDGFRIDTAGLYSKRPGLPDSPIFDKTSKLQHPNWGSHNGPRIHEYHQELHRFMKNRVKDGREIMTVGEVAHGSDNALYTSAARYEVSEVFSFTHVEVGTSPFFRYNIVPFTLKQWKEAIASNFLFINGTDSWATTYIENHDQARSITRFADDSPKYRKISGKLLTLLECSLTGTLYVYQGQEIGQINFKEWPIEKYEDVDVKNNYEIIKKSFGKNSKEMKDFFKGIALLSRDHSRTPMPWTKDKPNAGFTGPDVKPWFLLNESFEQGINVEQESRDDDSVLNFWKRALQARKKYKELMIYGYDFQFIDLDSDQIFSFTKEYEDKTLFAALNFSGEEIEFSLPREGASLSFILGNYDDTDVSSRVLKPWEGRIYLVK
Sequence of UniProt P32198 (whole entry, looked up): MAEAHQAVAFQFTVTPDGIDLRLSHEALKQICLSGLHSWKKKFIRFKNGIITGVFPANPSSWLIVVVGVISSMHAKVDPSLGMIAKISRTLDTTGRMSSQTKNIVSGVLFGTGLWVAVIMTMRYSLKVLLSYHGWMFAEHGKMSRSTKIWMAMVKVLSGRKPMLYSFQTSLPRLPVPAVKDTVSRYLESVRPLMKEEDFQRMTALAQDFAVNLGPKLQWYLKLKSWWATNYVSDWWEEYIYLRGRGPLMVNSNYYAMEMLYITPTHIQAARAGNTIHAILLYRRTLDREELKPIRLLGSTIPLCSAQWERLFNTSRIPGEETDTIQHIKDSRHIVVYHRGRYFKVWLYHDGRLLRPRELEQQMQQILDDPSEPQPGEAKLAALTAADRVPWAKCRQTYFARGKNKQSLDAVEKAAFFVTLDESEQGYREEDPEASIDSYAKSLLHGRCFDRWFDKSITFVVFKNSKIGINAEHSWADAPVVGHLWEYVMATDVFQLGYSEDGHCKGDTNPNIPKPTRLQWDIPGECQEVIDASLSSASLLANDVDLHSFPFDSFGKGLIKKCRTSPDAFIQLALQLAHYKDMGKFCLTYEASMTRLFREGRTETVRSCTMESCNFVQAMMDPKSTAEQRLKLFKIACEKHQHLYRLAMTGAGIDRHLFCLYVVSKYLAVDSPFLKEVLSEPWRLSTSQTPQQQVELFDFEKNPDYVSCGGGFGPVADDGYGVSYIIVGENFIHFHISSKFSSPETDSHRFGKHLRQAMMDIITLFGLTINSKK
Sequence of UniProt P07237 (whole entry, looked up): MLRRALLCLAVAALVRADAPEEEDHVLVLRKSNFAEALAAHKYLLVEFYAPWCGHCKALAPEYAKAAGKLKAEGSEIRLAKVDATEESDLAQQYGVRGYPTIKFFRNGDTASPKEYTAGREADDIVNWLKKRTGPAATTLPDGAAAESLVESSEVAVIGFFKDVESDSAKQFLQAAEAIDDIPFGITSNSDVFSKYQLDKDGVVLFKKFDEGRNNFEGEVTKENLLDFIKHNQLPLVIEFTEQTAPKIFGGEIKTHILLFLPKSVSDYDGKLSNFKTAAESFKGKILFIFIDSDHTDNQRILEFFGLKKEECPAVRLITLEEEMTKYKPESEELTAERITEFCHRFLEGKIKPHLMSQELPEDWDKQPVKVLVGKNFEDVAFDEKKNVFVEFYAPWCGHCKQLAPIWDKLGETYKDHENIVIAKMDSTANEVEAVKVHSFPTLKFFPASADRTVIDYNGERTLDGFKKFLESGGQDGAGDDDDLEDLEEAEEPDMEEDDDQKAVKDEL
Sequence of UniProt O43318 (whole entry, looked up): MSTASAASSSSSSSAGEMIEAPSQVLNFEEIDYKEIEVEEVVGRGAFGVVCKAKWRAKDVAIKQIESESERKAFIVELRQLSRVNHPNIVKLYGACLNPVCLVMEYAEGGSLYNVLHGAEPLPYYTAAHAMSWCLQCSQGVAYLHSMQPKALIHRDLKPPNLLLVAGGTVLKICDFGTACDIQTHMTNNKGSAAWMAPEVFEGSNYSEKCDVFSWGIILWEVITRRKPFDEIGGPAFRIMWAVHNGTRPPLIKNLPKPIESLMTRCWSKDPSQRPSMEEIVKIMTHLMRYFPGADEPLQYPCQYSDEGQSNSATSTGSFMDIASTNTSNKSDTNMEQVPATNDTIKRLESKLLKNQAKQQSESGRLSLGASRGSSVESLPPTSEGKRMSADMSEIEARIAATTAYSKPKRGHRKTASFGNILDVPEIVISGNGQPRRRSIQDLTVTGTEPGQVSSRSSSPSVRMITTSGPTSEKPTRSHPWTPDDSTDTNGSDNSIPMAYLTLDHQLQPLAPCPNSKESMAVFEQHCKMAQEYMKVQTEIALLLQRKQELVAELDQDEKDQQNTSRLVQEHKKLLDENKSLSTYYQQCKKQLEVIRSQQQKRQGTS
Sequence of UniProt P35408 (whole entry, looked up): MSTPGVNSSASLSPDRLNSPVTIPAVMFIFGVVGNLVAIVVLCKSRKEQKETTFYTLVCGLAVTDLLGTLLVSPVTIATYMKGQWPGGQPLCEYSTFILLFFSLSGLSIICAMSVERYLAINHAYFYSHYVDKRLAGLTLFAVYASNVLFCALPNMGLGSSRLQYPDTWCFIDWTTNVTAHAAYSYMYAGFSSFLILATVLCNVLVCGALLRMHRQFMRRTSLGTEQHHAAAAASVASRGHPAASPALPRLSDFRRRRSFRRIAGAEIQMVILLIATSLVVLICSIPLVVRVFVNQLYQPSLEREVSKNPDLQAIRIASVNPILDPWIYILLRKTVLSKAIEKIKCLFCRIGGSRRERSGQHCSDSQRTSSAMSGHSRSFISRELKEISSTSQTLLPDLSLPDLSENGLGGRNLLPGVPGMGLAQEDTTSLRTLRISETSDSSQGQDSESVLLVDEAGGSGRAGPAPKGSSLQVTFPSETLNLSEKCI
Sequence of UniProt O95372 (whole entry, looked up): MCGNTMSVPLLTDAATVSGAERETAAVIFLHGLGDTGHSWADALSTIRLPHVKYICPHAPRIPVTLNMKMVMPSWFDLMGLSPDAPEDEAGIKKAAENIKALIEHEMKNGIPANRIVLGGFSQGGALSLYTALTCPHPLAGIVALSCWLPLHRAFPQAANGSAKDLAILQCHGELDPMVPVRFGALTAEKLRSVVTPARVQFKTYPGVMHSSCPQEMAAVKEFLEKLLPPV
Sequence of UniProt P17707 (whole entry, looked up): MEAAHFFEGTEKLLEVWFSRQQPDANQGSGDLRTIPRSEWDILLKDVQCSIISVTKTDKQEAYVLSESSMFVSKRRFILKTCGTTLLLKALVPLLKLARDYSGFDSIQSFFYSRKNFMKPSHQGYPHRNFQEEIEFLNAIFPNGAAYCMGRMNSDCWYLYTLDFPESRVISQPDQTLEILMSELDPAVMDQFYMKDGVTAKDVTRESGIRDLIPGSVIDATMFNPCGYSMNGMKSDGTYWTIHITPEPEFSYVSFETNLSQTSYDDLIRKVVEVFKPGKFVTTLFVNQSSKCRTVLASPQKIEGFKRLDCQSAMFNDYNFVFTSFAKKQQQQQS
Sequence of UniProt P35462 (whole entry, looked up): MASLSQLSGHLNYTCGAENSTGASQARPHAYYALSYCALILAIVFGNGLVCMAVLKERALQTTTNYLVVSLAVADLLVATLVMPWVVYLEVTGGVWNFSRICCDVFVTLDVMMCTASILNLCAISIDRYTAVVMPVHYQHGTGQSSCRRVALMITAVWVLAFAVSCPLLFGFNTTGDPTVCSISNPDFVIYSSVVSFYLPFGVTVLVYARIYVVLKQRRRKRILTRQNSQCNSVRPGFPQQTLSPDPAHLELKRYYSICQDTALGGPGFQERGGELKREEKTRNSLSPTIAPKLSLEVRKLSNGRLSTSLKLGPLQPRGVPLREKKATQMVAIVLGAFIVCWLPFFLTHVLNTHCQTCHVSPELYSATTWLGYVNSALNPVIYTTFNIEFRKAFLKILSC
Sequence of UniProt P19784 (whole entry, looked up): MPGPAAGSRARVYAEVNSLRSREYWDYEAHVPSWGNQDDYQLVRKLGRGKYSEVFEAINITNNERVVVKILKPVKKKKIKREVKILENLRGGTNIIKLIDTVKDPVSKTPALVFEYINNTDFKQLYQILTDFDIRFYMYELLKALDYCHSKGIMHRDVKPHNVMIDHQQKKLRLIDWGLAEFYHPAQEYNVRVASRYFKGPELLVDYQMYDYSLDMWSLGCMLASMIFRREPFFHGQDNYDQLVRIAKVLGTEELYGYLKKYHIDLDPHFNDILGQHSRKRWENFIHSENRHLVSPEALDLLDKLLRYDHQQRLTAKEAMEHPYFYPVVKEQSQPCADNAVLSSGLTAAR

Under inhibition, `NNCc1c[nH]c2ccccc12` is recorded as “no inhibition” (AMD1 (Homo sapiens, UniProt P17707); probe labelling, inhibitor, gel-based competitive ABPP; transfected HEK-293T cell lysate; 1 µM).
`O=C1O[C@H]2[C@@H]3OC(=O)c4cc(O)c(O)c(O)c4-c4c(O)c(O)c5oc(=O)c6c(c(O)c(O)c7oc(=O)c4c5c76)-c4c(cc(O)c(O)c4O)C(=O)OC[C@H]3OC(O)[C@@H]2OC(=O)c2cc(O)c(O)c(O)c2-c2c1cc(O)c(O)c2O` (mixture of isomers) — result for inhibition: “inhibited” (P4HB (Homo sapiens, UniProt P07237); insulin reduction; 20 µM).
`CC(C)CC(=O)OC[C@H]1O[C@@](C#N)(c2ccc3c(N)ncnn23)[C@H](O)[C@@H]1O` has an inhibition of 2% (Grin1 (Rattus norvegicus, UniProt P35439); radioligand binding; 20 µM, rat).
For `O=C(O)CC(F)(F)C(=O)N1N=C(c2c(-c3ccc(Cl)cc3)c3ccccc3[nH]c2=O)C[C@H]1c1ccc(Cl)cc1`, inhibition read “no inhibition” (Glutamate NMDA receptor; Grin1/Grin2b (Grin1/Grin2b, Rattus norvegicus, UniProt P35439+Q00960); TEVC; Xenopus oocytes; concentration not given, diheteromeric GluN1a/GluN2B, added: glutamate, glycine).
The IC50 of `Fc1ccc(C(OCCCc2c[nH]cn2)c2ccc(F)cc2)cc1` is reported as 10 µM (Plasmodium falciparum; Dd2).
`O=C(Nc1cccnn1)N1CCC(=Cc2cccc(Oc3ccc(C(F)(F)F)cn3)c2)CC1` has an inhibition of 6% and 1% (Carnitine O-palmitoyltransferase 1, liver isoform (Rattus norvegicus, UniProt P32198); enzyme activity; concentration not given).
With `Cc1ncc(C)n2nc(/C=C/c3nc(N4CCCC4)cc(N4CCOCC4)n3)nc12` the inhibition was 1% (kainate receptor; binding; 10 µM).
For `COc1cc(Nc2ncc(F)c(Nc3ccc4c(n3)NC(=O)C(C)(C)O4)n2)cc(OC)c1OC`, the inhibition was 0% (CDK18 (Homo sapiens, UniProt Q07002); binding, KINOMEscan; 10 µM, PCTK3 kinase).
`FC(F)(F)c1cccc(Nc2nc(NCCOc3ccccc3)nc3[nH]cnc23)c1` has an inhibition of 5% (CSNK2A2 (Homo sapiens, UniProt P19784); Z'-LYTE or Adapta; 5 µM).
Under “median protein ratio”, `O=C(c1ccc(Cl)cc1)N1CCN2C(=O)N(OC(=O)N3CCOc4ccccc43)C(=O)C2C1` (stereo not drawn) is recorded as 1.06 (Acyl-protein thioesterase 2 (Homo sapiens, UniProt O95372); MS-based ABPP; SW-620 conditioned medium; 10 µM, 1 h, 37 °C; reference: compound over DMSO, lower = more inhibition).
The inhibition of `C[C@H](C(=O)N[C@H]1COc2ccccc2[C@@H]1S(C)(=O)=O)c1ccc(F)cc1` is reported as 5% (PGR (Homo sapiens, UniProt P06401); activity; 10 µM, Eurofins selectivity panel).
With `O=C(Nc1cccnn1)N1CCN([C@@H]2CCOc3cc(C(F)(F)F)ccc32)CC1` the inhibition was 33% (Quinone reductase 2 (Mesocricetus auratus, UniProt A0ABM2YAB8); binding; 20 µM, MT3 (ML-2) site).
For `CCc1cc(=O)[nH]c(-n2nc(C)cc2NC(=O)c2ccc(C)c(C)c2)n1`, inhibition read “no inhibition” (ROCK1 (Homo sapiens, UniProt Q13464); radiometric kinase; 10 µM).
For `CN(N=O)c1ccc(O)c(O)c1`, inhibition read “inhibited” (F13A1 (Homo sapiens, UniProt P00488); crosslinking activity; 15 µM, without DTT).
With `CC[C@H](C)[C@H](NC(=O)[C@@H](NC(=O)[C@H](N)Cc1ccccc1)C(C)C)C(=O)N[C@@H](C)C(N)=O` the inhibition was 100% (APP (Homo sapiens, UniProt P05067); amyloid-beta aggregation, thioflavin T fluorescence; 2.0 µM, 48 h, added: 2 µM amyloid-beta).
`CC(C)n1cnc2c(NCCc3ccc(O)cc3)nc(-c3csc4ccccc34)nc21` gave an IC50 of 0.91 ± 0.21 µM (BCHE; inhibitor, fluorometric).
The inhibition of `Cn1cc(-c2cccc(N3CCc4c(sc5c4CC(C)(C)C5)C3=O)c2CO)cc(Nc2ccncn2)c1=O` is reported as 1% (Mitogen-activated protein kinase kinase kinase 7, with TAB1 (MAP3K7, Homo sapiens, UniProt O43318); kinase activity, inhibitor; 1 µM, SelectScreen profiling).
Under “log2 fold change”, `Oc1ccc2c3c1O[C@H]1[C@@H](O)CC[C@@]4(O)[C@@H](C2)N(CC2CCC2)CC[C@]314` is recorded as 0.203 (Adhesion G-protein coupled receptor D1 (ADGRD1, Homo sapiens, UniProt Q6QNK2); β-arrestin recruitment, TANGO luminescence, item: GPR133; concentration not given; reference: basal luminescence).
With `CN(CCN1CCC(OC(=O)Nc2ccccc2-c2ccccc2)CC1)C(=O)c1ccc(CN2CCC(C(N)=O)CC2)cc1` the inhibition was 14% (rat P2X receptor; radioligand binding; 1 µM, added: [3H]α,β-MeATP 3.0 nM).
Under inhibition, `O=C(O[C@@H]1Cc2c(O)cc(O)cc2O[C@@H]1c1cc(=O)c(O)c2c(O)c(O)cc([C@H]3Oc4cc(O)cc(O)c4C[C@H]3O)c2c1)c1cc(O)c(O)c(O)c1` is recorded as “inhibited” (Protein disulfide-isomerase, a' domain (P4HB, Homo sapiens, UniProt P07237); di-eosin-GSSG reductase activity; isolated a' domain; 20 µM).
For `CN(C(=O)n1cnc(-c2ccc[n+]([O-])c2)c1)C1CCCCC1`, the inhibition was 3% (DRD3 (Homo sapiens, UniProt P35462); radioligand binding; 50 µM, added: [3H]spiperone).
`COc1ccc2[nH]c3c(c2c1)CCN(C)CC3` gave an inhibition of 21.2 ± 7.3% (Chrna7 (Rattus norvegicus, UniProt Q05941); ACh-evoked current, antagonist, two-electrode voltage clamp; Xenopus laevis oocytes; 10 µM, holding potential -40 mV, added: 100 µM acetylcholine).
The inhibition of `O=c1ccc2ccccc2o1` is reported as 11.5% (PDE3A (Homo sapiens, UniProt Q14432); enzyme activity; 10 µM, SafetyScreen44).
With `COc1ccc(N2C(=O)N(c3c(C)cccc3Cl)Cc3cnc(Nc4ccc(C5CCN(C)CC5)cc4OC)nc32)nc1` the inhibition was 5% (NEK6 (Homo sapiens, UniProt Q9HC98); kinase activity; 0.5 µM).
`COc1ccc2c(c1)CN(C(=O)CCN1CCC(Cc3ccccc3)CC1)CCS2` has an IC50 of 6.22 ± 0.79 µM (BCHE; inhibitor, fluorometric).
`CCc1ccc(N2C(=O)/C(=C3/C(=O)N(C)c4ccc(Cl)cc43)NC2=S)cc1` has an inhibition of 41.8% and 42.2% (MAL12; enzyme activity; 100 µM, added: pNPG).
The inhibition of `CC[C@H](C)[C@@H]1NC(=O)[C@H](Cc2ccc(O)cc2)NC(=O)[C@H](CC(=O)O)NC(=O)CCc2cccc3c2Oc2c(cccc2-3)CCNC(=O)[C@H](CC(=O)O)NC(=O)[C@H](CC(=O)O)NC(=O)[C@H](CCCCN)NC1=O` is reported as ~85% (Lymphocyte function-associated antigen 3 (CD58, Homo sapiens, UniProt P19256); antibody binding, flow cytometry; Caco-2; 200 µM, 30 min, 4 °C).
`Oc1ccc(Cc2ccc(O)cc2)cc1` gave an inhibition of > 50% (MAL12; inhibitor; 100 µg/mL, 0.4167 h, added: p-nitrophenyl glucoside substrate).
The inhibition of `CN1CCN(c2cc(-c3ccncc3)c(-c3ccc4ccccc4c3)nn2)CC1` is reported as -7.2% (Proteinase-activated receptor 2, trypsin-activated (F2RL1, Homo sapiens, UniProt P55085); antagonist, FLIPR; 10 µM).
`COc1ccc(CCN(C)CCCC(C#N)(c2ccc(OC)c(OC)c2)C(C)C)cc1OC` (stereo not drawn) has an IC50 of 5.01 µM (Plasmodium falciparum; GB4).
For `CN1C(=S)N(c2ccccc2)C(=O)/C1=C1/C(=O)N(C)c2ccc(Cl)cc21`, the inhibition was 12.2% (MAL12; enzyme activity; 25 µM, added: pNPG).
With `CC(C)N1CCC[C@H]1CNC(=O)c1cn(C2CCCC2)c(=O)c2c1c1ccccc1n2C` the inhibition was 41% (L-type calcium channel benzothiazepine site, rat; radioligand binding; 10 µM).
`Cn1cccc1-c1cccnc1` gave an inhibition of -1.93% (HRH1 (Homo sapiens, UniProt P35367); binding; 50 µM).
For `C[C@H]1CN(c2n[nH]c3nc(N[C@H]4CC[C@H](NS(=O)(=O)CCC(F)(F)F)CC4)ncc23)CCO1`, the relative abundance was 1.07 (HDAC1 (Homo sapiens, UniProt Q13547); inhibitor, Kinobeads competition profiling; 0.032 µM; reference: vehicle).
`O=C(Nc1cnccc1Cl)N1CCN(Cc2ccc3c(c2)OC(F)(F)O3)CC1` has an inhibition of 2% (PTGER4 (Homo sapiens, UniProt P35408); binding, item: EP4; 10 µM, human, added: [3H]prostaglandin E2).
For `COCc1c(-c2cc3cc(C)cc(OC)c3s2)c2c(N)ncnn2c1CN1CCNC(=O)C1`, the inhibition was 1% (leukotriene C4 synthase; enzyme activity; 10 µM).
For `C[C@H]1N=C(c2ccccc2F)c2cc(Br)ccc2-n2cnc(C(=O)O)c21`, the inhibition was 91.9 ± 3.5% (rat benzodiazepine site; binding; rat brain; 10 µM, added: [3H]flunitrazepam).
`CC(C)C[C@H](NC(=O)[C@H](Cc1ccccc1)NC(=O)c1cnccn1)B(O)O` gave an inhibition of 44.4% (Brain-specific serine protease 4 (PRSS22, Homo sapiens, UniProt Q9GZN4); enzyme activity, inhibitor; 33 µM).
`CN1CCN(c2nc(N)c3ccccc3n2)CC1` has an inhibition of 7.7% (Htr1d (Rattus norvegicus, UniProt P28565); radioligand binding, radioligand competition binding; rat; 0.1 µM, first replicate; reference: control specific binding).

Repeated from above:
For `O=C(O)CC(F)(F)C(=O)N1N=C(c2c(-c3ccc(Cl)cc3)c3ccccc3[nH]c2=O)C[C@H]1c1ccc(Cl)cc1`, inhibition read “no inhibition” (Glutamate NMDA receptor; Grin1/Grin2b (Grin1/Grin2b, Rattus norvegicus, UniProt P35439+Q00960); TEVC; Xenopus oocytes; concentration not given, diheteromeric GluN1a/GluN2B, added: glutamate, glycine).
The IC50 of `Fc1ccc(C(OCCCc2c[nH]cn2)c2ccc(F)cc2)cc1` is reported as 10 µM (Plasmodium falciparum; Dd2).
`O=C(Nc1cccnn1)N1CCC(=Cc2cccc(Oc3ccc(C(F)(F)F)cn3)c2)CC1` has an inhibition of 6% and 1% (Carnitine O-palmitoyltransferase 1, liver isoform (Rattus norvegicus, UniProt P32198); enzyme activity; concentration not given).
With `Cc1ncc(C)n2nc(/C=C/c3nc(N4CCCC4)cc(N4CCOCC4)n3)nc12` the inhibition was 1% (kainate receptor; binding; 10 µM).
For `COc1cc(Nc2ncc(F)c(Nc3ccc4c(n3)NC(=O)C(C)(C)O4)n2)cc(OC)c1OC`, the inhibition was 0% (CDK18 (Homo sapiens, UniProt Q07002); binding, KINOMEscan; 10 µM, PCTK3 kinase).
